# Measurements from different studies.
# Numbered parts are unrelated; each lists some results of a single study. Substitutions count along the parent as printed.

# Sample 1 — technique: protein binding microarray; molecule type: double-stranded DNA, one strand shown; sample: in vitro; concentration: not given; relative to: not given; direction: higher = stronger binding
# Target: Histone acetyltransferase KAT6A, winged helix 2, GST fusion (KAT6A, Homo sapiens, UniProt Q92794, residues 85-181)
# Setting: 8-mer, flanks averaged, mean of 2 arrays, mostly near background
# Construct (chain): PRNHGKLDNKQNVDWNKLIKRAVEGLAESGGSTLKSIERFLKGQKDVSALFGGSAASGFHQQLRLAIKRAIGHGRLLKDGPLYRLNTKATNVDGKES
Oligonucleotide,E-score
AATAACGT,-0.187
ACTCCTTC,-0.223
ATAACTGG,-0.138
CATTGACC,-0.105
GTCCAATA,-0.0247
CGAGCCCC,0.0115
GAATGTAA,0.0217
TGCGTTAA,-0.0258
ATTGGCGA,-0.0611
CTATGATC,0.0698
CGGGGTAG,-0.0835
GATAGGTA,-0.0825
GTTAGGTA,0.00879
CCAAAGGG,0.131
AATAGTCA,0.0113
AATTCTAA,0.124
GCGCACGA,-0.0607
ATCGTGGG,0.0438

# Sample 2 — technique: RNA Bind-n-Seq; molecule type: RNA; sample: in vitro; concentration: 365 nM; relative to: no-protein control; direction: higher = stronger binding
# Target: RNA binding protein fox-1 homolog 2, RRM domain, GST-SBP tag (RBFOX2, Homo sapiens, UniProt O43251-10, residues 100-194)
# Setting: natural RNA segment, single round, ends assumed
# Constant ends, left off below: GGGAGUUCUACAGUCCGACGAUC … UGGAAUUCUCGGGUGCCAA
# Residues (chain): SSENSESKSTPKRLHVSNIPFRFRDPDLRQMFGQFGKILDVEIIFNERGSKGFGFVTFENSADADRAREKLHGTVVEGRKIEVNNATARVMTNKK
Oligonucleotide,RBNS enrichment (R)
CCGAAGAAGGGUCCUUCCCUCUCCCCAAGACUUGGUGUCCUUUCCCUCCACUCCUUCCUGCCACCUGCUGCUGCUGCUGCUGCUAAUCUUCAGGGCACUGCUGCUGCCUU,0.576
ACCAUGCAUGACUCAGAUGCCCUCAGGUCCCUUUCUCUAUGGUAUGUAUACUGCUUGUGUUUGGGUUGAAGCACUACCUGACAUUAAAGGAAGGACUUGGAGAGAGAAUG,22.6
UUUGGGUUUUAACCAAAUAACCGGUCCAGGAGUGAGCAGCUCCGUUCUGUCAGAUGCUACUCCAAAUGUUACCAGAACGAUGACAAAAGGGGAGACGCUCUAUUUUUUCA,0.33
CCCACCUACCCCAGAUCUACAGCUUUUUAGCUUUUAAUUUGAAUCAUCUGCAUAGUUGCUUGGAUCAUUGUUACAUCAGUUCAGCGCAUAGUAGCAAUUCUGGUGUGGCC,0.426
UUCUGGUUAGCUCAGCCCCAGCCCAGCCCAGCUGCUCUGCCCAGAGCUGGGUGAGUGGGGAGACACCUCAGAGCCCCGCAAAACCCACUGACCGGAGGCAAAAGGCAGUG,0.908
AACAGGGAGGCACCUGGUAUCUCGAGUGCCUGCAGUUGCAAGUAUGUUUACACCUGGUGUCCAAUUUUGUAUUUUAAAAUGUAAUCCAUUUUUACUUCAGCUCAUCCAAA,0.374
UGGCUAUUCAGGGAAAUUACUCUCUACCUCCCCAUGACAUGGAUGAUAAGUGUUGAGGGAUGAACACUCUGGAAACUCUUAGCAUGGAUUUUGAAUUCCAGAUUUCUUUA,2.83
UGCACUGUGAGCAGCACUAUACCUGUGCGUUGUCUGAAAGCCUUCCGUAUAUUCUCCAGCUAAAUGGUCGUCUGGUAGCCUUUGCAUUUAACAAACUAGCAUGAGGCUUU,3.65
CAUCUCUCCUCCUACAGCCUUAAUGGCUGCUUGCUGCCAUAUGUGACAAAUCACCACCACCAGUGUUAAGUGCUUCUGGAUUCAUGGGUGAGUUCCCUGGGCAGCCCCCA,0.311
CAUCCAGCAGUCAGAUGUGUCCUCGGUCCUCUGUGGCCCUCCGUUGCCGCCUGUGUGCUUUGCCCGUGUGCUCCUGCUGUCCCUCUGCCUGGGAUGGCCGCCCUGCUCUG,3.93
CUUGUUCAGUGUGAUGGAAUAACAAGAUGAAUUAUUGGUGAUUUUUCAUAAUCGAUGUGGUCUACUAAGAAAGAUAACAAUUUGUGCUAAAAUGCCCAUGUUUACCUGUA,0.801
GUAUUCUUACUGUUUUUUUAAAAUAACUUUUUGCCUUAAUAGCUCAUUGUCACUAAUAACUUCUGUGUUCUCCCAGGCAGUGUUAUAACAGAAGGGCAAUGAAAACAUUG,0.447

# Sample 3 — technique: DHFR PCA, deep sequencing; sample: yeast; together with: (+)-ABA 17 µM; relative to: wild-type fitted maximum; direction: higher = stronger binding
# Target: ABI1, truncated, D143A, DHFR fusion (Arabidopsis thaliana)
# Setting: methotrexate growth selection, single substitutions
# Starting sequence: PYL1, truncated, DHFR fusion (Arabidopsis thaliana); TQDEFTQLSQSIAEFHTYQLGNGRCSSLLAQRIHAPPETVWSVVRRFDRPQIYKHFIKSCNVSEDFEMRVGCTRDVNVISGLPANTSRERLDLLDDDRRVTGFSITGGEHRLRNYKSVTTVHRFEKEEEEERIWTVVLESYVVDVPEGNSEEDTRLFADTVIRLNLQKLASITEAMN
Variant,relative binding score
K116R,91.7%
R74C,-18.1%
T154M,52.1%
R69K,88%
G108I,2.7%
P37V,74.4%
F157C,-10.2%
P50H,-1.38%
V100T,46.2%
A175P,61.2%
Q51R,25.4%

# Sample 4 — target: NFE2L2, bZIP domain (human); technique: DHFR protein complementation; sample: yeast; relative to: wild-type JUN-FOS pair; direction: higher = stronger binding
# Setting: single substitutions, most at no-binding floor
# Starting sequence: JUN, bZIP domain (human); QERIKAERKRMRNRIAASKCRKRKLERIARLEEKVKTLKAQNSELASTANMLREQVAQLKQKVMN; partner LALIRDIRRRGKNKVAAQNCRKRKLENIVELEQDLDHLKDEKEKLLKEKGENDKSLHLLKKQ
Variant,binding fitness [natural log]
Q55K,-1.25
T48A,-1.47
E33P,-1.48
V56R,-1.51
K36L,-1.36
L45H,-1.47
V56A,-1.26
E33R,-1.3
M51S,-1.51
E33F,-1.47
Q41S,-1.51
L59W,-1.42
A29T,-1.46
V35F,-1.55
A49G,-1.4
L52S,-1.55
E44T,-1.51
M51N,-1.44

# Sample 5 — technique: protein-binding microarray; molecule type: double-stranded DNA, one strand shown; sample: in vitro; concentration: 2540 nM top; setting: 60-bp whole probe; together with: salmon DNA 0.4 mg/ml; relative to: random background probes; direction: higher = stronger binding; constant ends, left off below: GCCTAGCAC … GTCTTGATTCGCTTGACGCTGCTG
# Target: Interferon regulatory factor 3, full length, phosphomimetic (IRF3, Homo sapiens, UniProt Q14653, residues 1-427, S386D/S396D/S398D/S402D/T404D/S405D)
Oligonucleotide,fitted relative affinity
TTAGGTGTCGGGTATCGGTTAGTGCTA,1.72 z-score
GACGATATCGGGACTGGATACGTGCTA,0.31 z-score
TTAGGACTGGACCATCGGTTAGTGCTA,-0.675 z-score
TAAGAACTGAGACTGGATTAGTGCTAG,-0.487 z-score
AAGCTTCTGGTCTTCTGGACGTGCTAG,-0.448 z-score
TCAGTTTTGTGTGTGTGACTGTGCTAG,0.668 z-score
TCAAGTCCCAAGAATGGTACTGTGCTA,-0.499 z-score
AGTATGTTCCTTATTTAAGAGTGCTAG,2.74 z-score
GACGGACTGCGTCTCCTGACGTGCTAG,-0.541 z-score
TTTGCTCTGTGCATAGTTCTGTGCTAG,-0.247 z-score
GACGAACTCAGTCTCGAGACGTGCTAG,0.182 z-score

# Sample 6 — target: CCNB1, cyclin fold, Cln2 fusion (human); technique: yeast growth competition, sequencing; sample: yeast; setting: weak parent motif; relative to: not given; direction: higher = stronger binding
# Starting sequence: ORC1 docking peptide (human); PRARKRLELGNLG
Variant,normalised enrichment score
R4A,0.932
G13P,0.377
L9Q,0.196
A3T,1.05
L7P,-0.198
L9N,0.546
G10L,1.35
R4I,0.0941
K5I,0.872
R4W,0.469
R4K,0.231
R2Y,-0.03
N11F,0.91
G10S,0.455
L7M,0.611
L9S,0.811
L9V,1.18

# Sample 7 — Molecule: RNF26 RING domain (UniProt Q9BY78); technique: yeast two-hybrid; sample: yeast; setting: mostly zero background; relative to: not given; direction: higher = stronger interaction
target,lacZ reporter activity
UBE2Q1 UBC core domain (UniProt Q7Z7E8),3110
UBE2M UBC core domain (UniProt P61081),0
UBE2Z UBC core domain (UniProt Q9H832),2930
UBE2C UBC core domain (UniProt O00762),0
UBE2L3 UBC core domain (UniProt P68036),0
UBE2D1 UBC core domain (UniProt P51668),0
UBE2J2 UBC core domain (UniProt Q8N2K1),0
UBE2G1 UBC core domain (UniProt P62253),0
UBE2R2 UBC core domain (UniProt Q712K3),0
UBE2S UBC core domain (UniProt Q16763),0
UBE2T UBC core domain (UniProt Q9NPD8),0
UBE2I UBC core domain (UniProt P63279),0
BIRC6 UBC core domain (UniProt Q9NR09),0
UBE2E3 UBC core domain (UniProt Q969T4),0
UBE2O UBC core domain (UniProt Q9C0C9),0
UBE2B UBC core domain (UniProt P63146),0
UBE2J1 UBC core domain (UniProt Q9Y385),0

# Excerpt of the above (sample 4):
Variant,binding fitness [natural log]
V56R,-1.51
K36L,-1.36
L45H,-1.47
V56A,-1.26
E33R,-1.3
M51S,-1.51
E33F,-1.47
Q41S,-1.51
L59W,-1.42
A29T,-1.46
V35F,-1.55
A49G,-1.4
L52S,-1.55
